# Results from different studies.
# Each line is one published result; not all experiments were run side by side. Several values in a cell are separate wells, animals, samples, runs or records. ± gives the spread as reported.
# UniProt Q9H3G5, sequence (whole entry, looked up): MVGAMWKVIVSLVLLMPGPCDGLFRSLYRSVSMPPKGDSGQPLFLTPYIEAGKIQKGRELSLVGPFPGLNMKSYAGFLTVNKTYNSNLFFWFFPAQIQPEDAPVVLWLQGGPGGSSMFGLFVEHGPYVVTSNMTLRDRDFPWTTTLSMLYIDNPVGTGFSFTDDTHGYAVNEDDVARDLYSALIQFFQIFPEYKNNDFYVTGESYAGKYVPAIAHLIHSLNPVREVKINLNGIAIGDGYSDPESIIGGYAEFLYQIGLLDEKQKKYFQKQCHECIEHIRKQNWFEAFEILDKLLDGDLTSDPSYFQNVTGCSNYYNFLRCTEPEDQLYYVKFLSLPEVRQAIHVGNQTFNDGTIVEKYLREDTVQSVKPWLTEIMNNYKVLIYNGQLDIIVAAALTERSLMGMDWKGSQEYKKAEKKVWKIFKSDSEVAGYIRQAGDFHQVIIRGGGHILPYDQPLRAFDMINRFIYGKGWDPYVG
# UniProt Q9HC35, sequence (whole entry, looked up): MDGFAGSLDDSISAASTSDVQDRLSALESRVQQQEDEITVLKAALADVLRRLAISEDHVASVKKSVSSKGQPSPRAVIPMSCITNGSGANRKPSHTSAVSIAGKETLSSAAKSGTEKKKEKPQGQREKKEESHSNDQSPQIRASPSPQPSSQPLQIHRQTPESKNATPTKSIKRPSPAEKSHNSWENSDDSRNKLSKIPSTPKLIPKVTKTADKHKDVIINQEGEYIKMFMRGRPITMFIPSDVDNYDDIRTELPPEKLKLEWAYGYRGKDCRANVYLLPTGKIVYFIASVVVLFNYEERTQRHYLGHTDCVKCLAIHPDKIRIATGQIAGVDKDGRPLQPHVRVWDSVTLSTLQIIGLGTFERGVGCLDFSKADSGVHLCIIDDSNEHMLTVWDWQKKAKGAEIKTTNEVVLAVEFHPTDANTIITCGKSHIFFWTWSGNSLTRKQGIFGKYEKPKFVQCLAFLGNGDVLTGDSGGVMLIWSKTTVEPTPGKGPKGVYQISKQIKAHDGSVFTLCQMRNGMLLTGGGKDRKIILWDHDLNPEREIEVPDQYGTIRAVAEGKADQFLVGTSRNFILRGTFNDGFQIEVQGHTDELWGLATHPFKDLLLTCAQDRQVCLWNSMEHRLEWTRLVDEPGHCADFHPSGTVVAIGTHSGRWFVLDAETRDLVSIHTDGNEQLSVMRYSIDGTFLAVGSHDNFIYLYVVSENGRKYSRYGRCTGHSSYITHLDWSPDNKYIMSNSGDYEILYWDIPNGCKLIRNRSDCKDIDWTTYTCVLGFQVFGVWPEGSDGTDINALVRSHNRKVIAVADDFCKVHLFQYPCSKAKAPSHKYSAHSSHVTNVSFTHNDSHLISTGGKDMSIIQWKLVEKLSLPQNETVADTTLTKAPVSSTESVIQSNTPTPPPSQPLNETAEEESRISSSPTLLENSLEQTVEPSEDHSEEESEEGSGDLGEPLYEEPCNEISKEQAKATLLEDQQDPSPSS
# UniProt P11509, sequence (whole entry, looked up): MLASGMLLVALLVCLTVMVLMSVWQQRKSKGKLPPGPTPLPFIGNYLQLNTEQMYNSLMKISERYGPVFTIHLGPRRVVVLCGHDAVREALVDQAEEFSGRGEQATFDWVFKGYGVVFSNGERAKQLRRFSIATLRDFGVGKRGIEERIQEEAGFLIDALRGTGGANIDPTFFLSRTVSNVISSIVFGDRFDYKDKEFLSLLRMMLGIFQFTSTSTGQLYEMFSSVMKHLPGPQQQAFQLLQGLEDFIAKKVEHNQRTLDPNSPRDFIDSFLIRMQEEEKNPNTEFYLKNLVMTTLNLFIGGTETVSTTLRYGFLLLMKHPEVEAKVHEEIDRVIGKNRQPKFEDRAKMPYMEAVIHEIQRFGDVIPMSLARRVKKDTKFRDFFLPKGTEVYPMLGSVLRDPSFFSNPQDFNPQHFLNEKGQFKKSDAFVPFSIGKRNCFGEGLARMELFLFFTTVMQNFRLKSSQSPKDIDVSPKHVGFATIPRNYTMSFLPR
# UniProt Q9UF33, sequence (whole entry, looked up): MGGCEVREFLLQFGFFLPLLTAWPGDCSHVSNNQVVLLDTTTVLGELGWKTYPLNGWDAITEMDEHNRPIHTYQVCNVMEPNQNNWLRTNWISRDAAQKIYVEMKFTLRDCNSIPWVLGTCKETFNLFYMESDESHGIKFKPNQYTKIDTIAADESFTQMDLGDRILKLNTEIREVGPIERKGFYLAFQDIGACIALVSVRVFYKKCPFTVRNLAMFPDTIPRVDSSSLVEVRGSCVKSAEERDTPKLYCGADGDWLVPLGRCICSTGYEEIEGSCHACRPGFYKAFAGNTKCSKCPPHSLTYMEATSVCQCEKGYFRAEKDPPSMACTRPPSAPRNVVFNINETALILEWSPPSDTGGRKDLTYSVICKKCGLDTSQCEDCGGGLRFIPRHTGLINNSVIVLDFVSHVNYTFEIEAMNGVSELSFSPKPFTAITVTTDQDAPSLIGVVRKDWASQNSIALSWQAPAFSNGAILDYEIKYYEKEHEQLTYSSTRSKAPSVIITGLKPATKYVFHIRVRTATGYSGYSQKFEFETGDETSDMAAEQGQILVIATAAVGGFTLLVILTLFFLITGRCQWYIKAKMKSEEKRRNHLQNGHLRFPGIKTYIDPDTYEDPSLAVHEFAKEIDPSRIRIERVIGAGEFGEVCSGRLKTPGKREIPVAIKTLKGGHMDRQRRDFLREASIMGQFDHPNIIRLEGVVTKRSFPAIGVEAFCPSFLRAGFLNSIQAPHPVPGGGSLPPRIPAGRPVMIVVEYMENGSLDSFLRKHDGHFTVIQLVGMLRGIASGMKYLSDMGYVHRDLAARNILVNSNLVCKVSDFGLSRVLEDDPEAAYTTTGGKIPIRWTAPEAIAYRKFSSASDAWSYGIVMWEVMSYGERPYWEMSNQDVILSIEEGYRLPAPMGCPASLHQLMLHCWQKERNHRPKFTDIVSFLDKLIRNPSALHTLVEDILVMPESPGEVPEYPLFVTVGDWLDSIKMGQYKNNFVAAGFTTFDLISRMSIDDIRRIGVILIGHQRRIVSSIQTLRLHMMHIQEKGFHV
# UniProt Q8TDV2, sequence (whole entry, looked up): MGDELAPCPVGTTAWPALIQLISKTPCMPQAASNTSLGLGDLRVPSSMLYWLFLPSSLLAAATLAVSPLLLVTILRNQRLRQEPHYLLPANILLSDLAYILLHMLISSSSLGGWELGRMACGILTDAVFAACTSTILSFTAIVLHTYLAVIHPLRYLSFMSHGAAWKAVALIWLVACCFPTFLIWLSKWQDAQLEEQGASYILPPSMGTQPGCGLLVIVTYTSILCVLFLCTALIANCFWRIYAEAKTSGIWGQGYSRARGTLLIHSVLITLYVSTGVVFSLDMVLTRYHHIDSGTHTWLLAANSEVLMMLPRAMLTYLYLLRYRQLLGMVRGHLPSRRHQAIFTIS
# UniProt P27487, sequence (whole entry, looked up): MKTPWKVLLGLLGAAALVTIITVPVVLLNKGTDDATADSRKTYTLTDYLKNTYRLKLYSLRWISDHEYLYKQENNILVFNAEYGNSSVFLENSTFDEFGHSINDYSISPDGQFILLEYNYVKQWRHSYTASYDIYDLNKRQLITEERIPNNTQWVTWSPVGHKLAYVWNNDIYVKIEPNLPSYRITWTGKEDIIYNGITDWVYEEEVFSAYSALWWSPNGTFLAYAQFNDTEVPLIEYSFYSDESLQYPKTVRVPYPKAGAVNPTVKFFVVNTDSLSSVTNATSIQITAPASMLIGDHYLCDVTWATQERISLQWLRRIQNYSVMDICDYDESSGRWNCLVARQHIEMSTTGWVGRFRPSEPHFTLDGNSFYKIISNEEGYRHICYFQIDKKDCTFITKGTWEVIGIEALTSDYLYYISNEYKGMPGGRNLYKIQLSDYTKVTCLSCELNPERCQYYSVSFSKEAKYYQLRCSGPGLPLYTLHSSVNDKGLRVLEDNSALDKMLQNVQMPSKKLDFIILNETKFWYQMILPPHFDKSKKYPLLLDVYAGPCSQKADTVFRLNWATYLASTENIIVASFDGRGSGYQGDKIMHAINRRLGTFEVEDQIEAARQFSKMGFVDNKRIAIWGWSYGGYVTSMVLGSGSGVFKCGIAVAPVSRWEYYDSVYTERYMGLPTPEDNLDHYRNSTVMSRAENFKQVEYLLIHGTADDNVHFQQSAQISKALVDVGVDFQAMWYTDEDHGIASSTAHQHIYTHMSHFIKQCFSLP
# UniProt Q9UKP6, sequence (whole entry, looked up): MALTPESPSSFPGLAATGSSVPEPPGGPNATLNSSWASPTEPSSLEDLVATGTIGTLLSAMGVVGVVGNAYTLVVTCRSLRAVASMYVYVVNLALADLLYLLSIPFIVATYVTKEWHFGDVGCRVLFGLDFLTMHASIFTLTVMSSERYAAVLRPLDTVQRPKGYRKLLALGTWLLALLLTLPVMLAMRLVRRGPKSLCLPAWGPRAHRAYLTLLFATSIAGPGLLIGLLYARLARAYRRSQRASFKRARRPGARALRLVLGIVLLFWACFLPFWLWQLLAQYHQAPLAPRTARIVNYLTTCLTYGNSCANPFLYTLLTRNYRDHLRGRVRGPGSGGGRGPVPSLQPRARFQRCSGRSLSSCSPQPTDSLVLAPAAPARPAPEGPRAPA
Compound,tested on,test,test system,setting,how to read,measurement,result
COC(=O)[C@H]1[C@@H](OC(=O)c2ccccc2)C[C@@H]2CC[C@H]1N2C,,,rat whole blood,"500 nM, 4 h, room temperature",,stability bias,-0.07%
Cc1cc(C(=O)NC(C)(C)COc2cccc3c2C(N)=NS(=O)(=O)N3)cc(C)n1,Escherichia coli,"Ames test, confirmatory",WP2 uvrA,"333 µg/plate, added: rat liver S9",baseline: solvent control,revertant ratio,1.1
CC[C@H](C)[C@@H]1NC(=O)[C@@H]2CCCN2C(=O)[C@H](CC(C)C)NC(=O)[C@H](CC(C)C)NC(=O)CNC(=O)[C@@H](NC(=O)[C@@H](NC(=O)[C@H](CC(=O)O)NC(=O)CNC(=O)[C@@H](NC(=O)[C@H](C)NC(=O)CNC(=O)[C@H](CCCCN)NC(=O)[C@H](CC(C)C)NC(=O)[C@H](CC(C)C)NC(=O)[C@H](CCCCN)NC(=O)CNC(=O)[C@@H](NC(=O)[C@@H](N)CC(C)C)C(C)C)C(C)C)C(C)C)CSSC[C@@H](C(=O)O)NC1=O,,"RNA-seq, item: Cd3d","mouse, traumatic brain injury model, frontal cortex and hippocampus",dose not given,baseline: TBI alone,log2 fold change,-2.9
COc1ccc(N2C(=O)N(c3c(C)cccc3Cl)Cc3cnc(Nc4ccc(C5CCN(C)CC5)cc4OC)nc32)nc1,"EPHA6 (Homo sapiens, UniProt Q9UF33)",kinase activity,,0.5 µM,,inhibition,55%
CN1CC[C@]23c4c5ccc(O[C@@H]6O[C@H](C(=O)O)[C@@H](O)[C@H](O)[C@H]6O)c4O[C@H]2[C@@H](O)C=C[C@H]3[C@H]1C5,,,"rat, whole blood","10 nM, 4 h, room temperature, bench-top storage",,stability bias,-7.5%
CC(C)C[C@@H]1NC(=O)[C@H](CC(C)C)NC(=O)[C@H](Cc2c[nH]c3ccccc23)NC(=O)[C@H](CO)NC(=O)[C@H](Cc2c[nH]c3ccccc23)NC(=O)[C@@H]2CCCN2C(=O)[C@H](CC(C)C)NC(=O)[C@H](Cc2c[nH]cn2)NC(=O)[C@@H]2CCCN2C(=O)[C@H](CC(N)=O)NC(=O)[C@H](C)NC(=O)[C@H](Cc2ccc(O)cc2)NC(=O)[C@H](CS)NC(=O)[C@H](CCCCNC(=O)CN2CCN(CC(=O)O)CCN(CC(=O)O)CCN(CC(=O)O)CC2)NC1=O [lutetium-177 labelled],,,"BALB/c mice female 4T1 tumour, 4T1 tumour","intravenous, 3.7 MBq, 72 h, unblocked",,tumour uptake,5.08 %ID
O=c1ccc2ccccc2o1,NHEK,,keratinocyte growth medium,"concentration not given, 1 h, ER stress panel",,"BiP induction, chance of response",0.05%
Cc1ccccc1NC(=O)Nc1ccc(CC(=O)N[C@@H](CCCCNC(=O)/C=C/c2cccnc2)C(=O)N[C@@H](CCCC(=O)O)C(=O)NC2(C(=O)NCCOCCOCCOCCOCC(=O)N[C@@H](CCCCNC(=S)Nc3ccc(CCCN(CCN4CCN(CP(=O)(O)O)CCN(CP(=O)(O)O)CC4)CC(=O)O)cc3)C(N)=O)CCCCC2)cc1 [gallium-68 labelled],,,"mice with B16-F10 tumour, tumour","intravenous, 4 h",,tumour uptake,15.2 ± 2.8 %ID/g
COc1cc2c(Oc3ccc4[nH]c(C)cc4c3F)ccnc2cc1OCC1(N)CC1,,,paediatric recurrent refractory sarcoma,8 mg/kg,,grade 1 or 2 Diarrhoea,33.3%
CN1[C@H]2CC[C@@H]1[C@@H](C(=O)O)[C@@H](OC(=O)c1ccccc1)C2,,,"rat, whole blood","10 nM, 4 h, room temperature, bench-top storage",,stability bias,-17.8%
OC1(c2ccc(Cl)c(C(F)(F)F)c2)CCN(CCCC(c2ccc(F)cc2)c2ccc(F)cc2)CC1,African green monkey cells,,,5 days,,CC50,3.59 µM
CC[C@H](C)[C@H](NC(=O)[C@H](Cc1ccccc1)NC(=O)[C@H](CCC(=O)O)NC(=O)[C@H](CCCNC(=N)N)NC(=O)[C@H](C)NC(=O)[C@H](C)NC(=O)[C@H](CCC(N)=O)NC(=O)[C@H](CCC(=O)O)NC(=O)[C@H](CCC(=O)O)NC(=O)[C@H](CC(C)C)NC(=O)[C@H](Cc1ccc(O)cc1)NC(=O)[C@H](CO)NC(=O)[C@H](CO)NC(=O)[C@@H](NC(=O)[C@H](CC(=O)O)NC(=O)[C@H](CO)NC(=O)[C@@H](NC(=O)[C@H](Cc1ccccc1)NC(=O)[C@@H](NC(=O)CNC(=O)[C@H](CCC(=O)O)NC(=O)[C@H](C)NC(=O)CCc1c[nH]cn1)[C@@H](C)O)[C@@H](C)O)C(C)C)C(=O)N[C@@H](C)C(=O)N[C@@H](Cc1c[nH]c2ccccc12)C(=O)N[C@@H](CC(C)C)C(=O)N[C@H](C(=O)N[C@@H](CCCNC(=N)N)C(=O)NCC(=O)N[C@@H](CCCNC(=N)N)C(=O)N[C@@H](CCCCNC(=O)COCCOCCNC(=O)COCCOCCNC(=O)CC[C@H](NC(=O)CCCCCCCCCCCCCCCCC(=O)O)C(=O)O)C(=O)NCC(=O)NCC(=O)N[C@@H](CO)C(=O)N[C@@H](CCCCNc1c(NCCCCCN(O)C(=O)CCC(=O)NCCCCCN(O)C(=O)CCC(=O)NCCCCCN(O)C(C)=O)c(=O)c1=O)C(=O)O)C(C)C [zirconium-89 labelled],,ex vivo gamma counting,"rat, muscle","subcutaneous, 3 nmol/kg, 168 h, added: [89Zr]-labelled peptide",,tissue uptake,0.04 %ID/g
O=[N+]([O-])c1ccc(N2CCN(CCC(O)c3ccc(F)cc3)CC2)c(C(F)(F)F)c1 (centres unmarked),Salmonella typhimurium,SOS/umu test,TA1535/pSK1002,"0.063 mg/mL, 4 h, with S9, lower range",,survival,99.2%
CN1CC[C@]23c4c5ccc(O)c4O[C@H]2[C@@H](O[C@@H]2O[C@H](C(=O)O)[C@@H](O)[C@H](O)[C@H]2O)C=C[C@H]3[C@H]1C5,,,"rat, whole blood","1000 nM, 4 freeze-thaw cycles",,stability bias,4.07%
CN(C)CCCN1c2ccccc2CCc2ccc(Cl)cc21,African green monkey cells,,,5 days,,CC50,16 µM
CCc1ccc(CC/C=C/c2ccc3c(c2)C(=O)CC3)cc1,,,"Sprague-Dawley rat, female","oral, 120 mg/kg/day, 14 days",,Calcium,2.54 mM
CC[C@H](C)[C@H](NC(=O)[C@H](C)NC(=O)[C@H](CCCCN)NC(=O)[C@H](CC(C)C)NC(=O)[C@H](C)NC(=O)[C@@H](NC(=O)[C@H](Cc1c[nH]cn1)NC(=O)[C@H](CC(C)C)NC(=O)[C@@H](NC(=O)[C@@H](NC(=O)[C@H](CCCCN)NC(=O)[C@H](C)NC(=O)[C@H](C)NC(=O)[C@H](CO)NC(=O)[C@H](CCCCN)NC(=O)[C@H](Cc1ccccc1)NC(=O)[C@@H](NC(=O)[C@H](CCCCN)NC(=O)[C@H](CC(C)C)NC(=O)[C@H](Cc1ccccc1)NC(=O)[C@H](CO)NC(=O)[C@H](CCCCN)NC(=O)[C@H](Cc1c[nH]c2ccccc12)NC(=O)[C@H](CCCCN)NC(C)=O)[C@@H](C)O)[C@@H](C)O)C(C)C)[C@@H](C)O)C(=O)N[C@@H](CO)C(=O)N[C@@H](CO)C(N)=O,Staphylococcus aureus,,ATCC 29213,,,MIC range,8 µg/mL
C[C@H]1CN(c2n[nH]c3nc(N[C@H]4CC[C@H](NS(=O)(=O)CCC(F)(F)F)CC4)ncc23)CCO1,"Echinoderm microtubule-associated protein-like 4 (Homo sapiens, UniProt Q9HC35)","Kinobeads competition, item: EML4",,"0.8 µM, unit not given",baseline: vehicle,remaining binding,1.04
C[C@]1(CO)Cc2ncn(-c3ccc(C#N)c(Cl)c3)c2C(=O)O1,,investigator-assessed,"human, Chinese",80 mg single dose,,subjects with drug-related TEAEs,50%
CN1[C@@H]2CC[C@H]1C[C@@H](OC(c1ccccc1)c1ccc(Cl)cc1)C2 (some centres unmarked),African green monkey cells,,,5 days,,CC50,8.13 µM
CC(=O)O[C@H]1C=C[C@H]2[C@H]3Cc4ccc(O)c5c4[C@@]2(CCN3C)[C@H]1O5,,,"rat, whole blood","1000 nM, 4 months, -80 °C, long-term storage",,stability bias,1.69%
COc1cc(Nc2ncc(F)c(Nc3ccc4c(n3)NC(=O)C(C)(C)O4)n2)cc(OC)c1OC,Ca2+-ATPase,"enzyme activity, inhibitor",pig skeletal muscle,,,IC50,> 10 µM
CC(O)(CS(=O)(=O)c1ccc(F)cc1)C(=O)Nc1ccc(C#N)c(C(F)(F)F)c1 (centres unmarked),RAW264.7,resazurin,DMEM with 10% FBS,,,CC50,> 100 µM
CC(C)CC(=O)OC[C@H]1O[C@@](C#N)(c2ccc3c(N)ncnn23)[C@H](O)[C@@H]1O,"Cytochrome P450 2A6 (CYP2A6, Homo sapiens, UniProt P11509)",metabolic stability,recombinant enzyme,1 µM,,intrinsic clearance,0 µL/min/pmol
COC(=O)[C@H]1[C@H]2C[C@@H]3c4[nH]c5cc(OC)ccc5c4CCN3C[C@H]2C[C@@H](OC(=O)c2cc(OC)c(OC)c(OC)c2)[C@@H]1OC,African green monkey cells,,,5 days,,CC50,11 µM
CO[C@H]1C[C@@H]2CC[C@@H](C)[C@@](O)(O2)C(=O)C(=O)N2CCCC[C@H]2C(=O)O[C@H]([C@H](C)C[C@@H]2CC[C@@H](OC(=O)NCCOCCOCCOCCOCCOCCOCCOCCOCCC(=O)N3CCc4cc(Cn5nc(-c6ccc7oc(N)nc7c6)c6c(N)ncnc65)ccc4C3)[C@H](OC)C2)C[C@@H](O)[C@H](C)/C=C(\C)[C@@H](O)[C@@H](OC)C(=O)[C@H](C)C[C@H](C)/C=C/C=C/C=C/1C,,"phase 1 dose escalation, item: decreased appetite",advanced solid tumour patients,"intravenous, 8 mg weekly, any grade",,TRAE incidence,25%
CC[C@H](C)[C@H](NC(=O)[C@H](Cc1ccccc1)NC(=O)[C@H](CCC(=O)O)NC(=O)[C@H](CCCCN)NC(=O)[C@H](C)NC(=O)[C@H](C)NC(=O)[C@H](CCC(N)=O)NC(=O)CNC(=O)[C@H](CCC(=O)O)NC(=O)[C@H](CC(C)C)NC(=O)[C@H](Cc1ccc(O)cc1)NC(=O)[C@H](CO)NC(=O)[C@H](CO)NC(=O)[C@@H](NC(=O)[C@H](CC(=O)O)NC(=O)[C@H](CO)NC(=O)[C@@H](NC(=O)[C@H](Cc1ccccc1)NC(=O)[C@@H](NC(=O)CNC(=O)[C@H](CCC(=O)O)NC(=O)[C@H](C)NC(=O)N(N)Cc1c[nH]cn1)[C@@H](C)O)[C@@H](C)O)C(C)C)C(=O)N[C@@H](C)C(=O)N[C@@H](Cc1c[nH]c2ccccc12)C(=O)N[C@@H](CC(C)C)C(=O)N[C@H](C(=O)N[C@@H](CCCNC(=N)N)C(=O)NCC(=O)N[C@@H](CCCNC(=N)N)C(=O)NCC(=O)O)C(C)C,"DPP4 (Homo sapiens, UniProt P27487)",HPLC-UV,Tris-HCl,"0.1 mM, 1 h, pH 7.4, 37 °C, added: DPP4 16 nM",,remaining peptide,100%
C[C@@H](Oc1cc(-c2cnn(C3CCNCC3)c2)cnc1N)c1c(Cl)ccc(F)c1Cl,African green monkey cells,,,5 days,,CC50,4.42 µM
COC(=O)[C@H]1[C@@H](OC(=O)c2ccccc2)C[C@@H]2CC[C@H]1N2,,,"rat, whole blood","1000 nM, 4 freeze-thaw cycles",,stability bias,9.62%
O=C1c2c(O)c(=O)ccn2N([C@@H]2c3ccccc3SCc3c2ccc(F)c3F)[C@@H]2COCCN12,,,BALB/c mouse,"subcutaneous, 2 mg/kg q24h",,Cmax,101 ng/mL
CN1CCC(CN2c3ccccc3Sc3ccccc32)C1 (centres unmarked),African green monkey cells,,,5 days,,CC50,14.8 µM
O=C(c1ccc(Cl)cc1)N1CCN2C(=O)N(OC(=O)N3CCOc4ccccc43)C(=O)C2C1 (centres unmarked),"Probable serine carboxypeptidase CPVL (CPVL, Homo sapiens, UniProt Q9H3G5)",MS-based ABPP,SW-620 conditioned medium,"10 µM, 1 h, 37 °C","baseline: compound over DMSO, lower = more inhibition",peptide ratio,1.02 and 1.11 and 1.13
CCOC(=O)Oc1c(OC)cc(C(=O)O[C@@H]2C[C@@H]3CN4CCc5c([nH]c6cc(OC)ccc56)[C@H]4C[C@@H]3[C@H](C(=O)OC)[C@H]2OC)cc1OC,African green monkey cells,,,5 days,,CC50,8.91 µM
CN1CC[C@@H](c2c(O)cc(O)c3c(=O)cc(-c4ccc(C(F)(F)F)cc4Cl)oc23)[C@@H]1CO,,item: respiratory failure,B-cell malignancies,"oral, 200 mg, grade 3 to 4, intermittent dosing",,patients with adverse event,0%
C[C@@H](O)[C@@H](CO)NC(=O)[C@@H](CCCNC(=N)N)NC(=O)[C@@H]1CCCN1C(=O)[C@@H]1CSSC[C@H](NC(=O)[C@H](Cc2ccccc2)NC(=O)CN2CCN(CC(=O)O)CCN(CC(=O)O)CCN(CC(=O)O)CC2)C(=O)N[C@@H](Cc2ccc(O)cc2)C(=O)N[C@@H](Cc2ccccc2)C(=O)N[C@@H](CCC(N)=O)C(=O)N[C@@H](CC(N)=O)C(=O)N1 [gallium-68 labelled],,,"Wistar rat, healthy, Parotid gland","intravenous, 8 MBq, 30 min",,tissue uptake,0.22 %ID/g
CN1CCN(c2cc(-c3ccncc3)c(-c3ccc4ccccc4c3)nn2)CC1,"UTS2R (Homo sapiens, UniProt Q9UKP6)","antagonist, FLIPR",,10 µM,,inhibition,11.7%
Oc1ccc2c3c1O[C@H]1[C@@H](O)CC[C@@]4(O)[C@@H](C2)N(CC2CCC2)CC[C@]314,"Probable G-protein coupled receptor 148 (GPR148, Homo sapiens, UniProt Q8TDV2)","β-arrestin recruitment, TANGO luminescence, item: GPR148",,concentration not given,baseline: basal luminescence,log2 fold change,0.097
CN1CCN(CCCN2c3ccccc3Sc3ccc(C(F)(F)F)cc32)CC1,African green monkey cells,,,5 days,,CC50,7.94 µM
